# Published values pooled from the literature.
# Protocols differ between the studies behind these lines. Several values in a cell are separate wells, animals, samples, runs or records. Numbers after ± are the reported error.
# Sequence of UniProt P10721 (whole entry, unmodified, looked up): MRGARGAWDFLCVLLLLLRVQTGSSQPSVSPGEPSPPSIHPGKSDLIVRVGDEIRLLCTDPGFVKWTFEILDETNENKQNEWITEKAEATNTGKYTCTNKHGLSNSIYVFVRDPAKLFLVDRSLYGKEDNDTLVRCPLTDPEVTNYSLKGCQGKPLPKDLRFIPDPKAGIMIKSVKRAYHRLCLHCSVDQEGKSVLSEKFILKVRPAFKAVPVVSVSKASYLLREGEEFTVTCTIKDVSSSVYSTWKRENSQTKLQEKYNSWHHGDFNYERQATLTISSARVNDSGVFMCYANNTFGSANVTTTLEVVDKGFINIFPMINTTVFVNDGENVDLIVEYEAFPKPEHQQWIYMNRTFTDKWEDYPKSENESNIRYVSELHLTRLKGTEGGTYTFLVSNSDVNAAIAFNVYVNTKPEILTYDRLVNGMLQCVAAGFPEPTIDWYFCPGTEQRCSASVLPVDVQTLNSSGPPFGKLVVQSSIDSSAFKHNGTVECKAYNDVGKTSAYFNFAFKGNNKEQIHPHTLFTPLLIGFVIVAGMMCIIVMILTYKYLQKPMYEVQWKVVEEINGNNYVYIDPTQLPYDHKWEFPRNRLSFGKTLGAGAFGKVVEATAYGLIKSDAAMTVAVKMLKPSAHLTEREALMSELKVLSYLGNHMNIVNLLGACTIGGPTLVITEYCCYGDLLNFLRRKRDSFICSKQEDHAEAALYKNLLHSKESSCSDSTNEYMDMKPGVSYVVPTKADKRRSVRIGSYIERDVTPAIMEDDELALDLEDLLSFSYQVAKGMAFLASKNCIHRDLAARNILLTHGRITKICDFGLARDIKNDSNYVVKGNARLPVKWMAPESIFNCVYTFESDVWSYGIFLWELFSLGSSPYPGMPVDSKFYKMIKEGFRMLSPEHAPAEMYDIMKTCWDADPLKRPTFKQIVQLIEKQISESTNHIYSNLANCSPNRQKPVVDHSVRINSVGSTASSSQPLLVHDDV
SMILES,target or system,assay,test system,conditions,scale,endpoint,result
CC(C(=O)O)n1nc(Cn2cc3cc(OCC[18F])c(Cl)cc3n2)c2ccccc2c1=O (racemic),,HPLC,"nonhuman primate, plasma",120 min post-injection,baseline: plasma radioactivity,parent radiotracer,78%
COc1ccc(/C=C\c2cc(OC)c(OC)c(OC)c2)cc1OC(C)(C)c1ccc([N+](=O)[O-])s1,,"non-enzymatic, no POR",phosphate buffer,"24 h, pH 7.4",,parent drug release,0%
CC(C)[C@H](NC(=O)[C@@H](NC(=O)[C@H](CCCNC(=N)N)NC(=O)[C@H](CCCNC(=N)N)NC(=O)[C@H](CCCNC(=N)N)NC(=O)[C@H](CCC(N)=O)NC(=O)[C@H](CCCNC(=N)N)NC(=O)[C@H](CCCNC(=N)N)NC(=O)[C@H](CCCCN)NC(=O)[C@H](CCCCN)NC(=O)[C@H](CCCNC(=N)N)NC(=O)CN)[C@@H](C)O)C(=O)N[C@H](C(=O)N[C@@H](CO)C(=O)N1CCC[C@H]1C(=O)O)[C@@H](C)O,,,"ICR mice, female, liver","intranasal, 10 mg/kg daily, 4 weeks",,organ weight,1.35 ± 0.235 g
C=Cc1c(C)c2cc3nc(c(CC(=O)[O-])c4[n-]c(cc5nc(cc1[n-]2)C(C)=C5CC)c(C)c4C(=O)[O-])C(CCC(=O)[O-])C3C.[Cu+2].[Na+].[Na+].[Na+] (centres unmarked),,,"Wistar rat, female","oral, 500 mg/kg daily, 28 days",,serum alkaline phosphatase,160 ± 28.5 U/L
CC(C)N1CCCCC1C(=O)NC(Cc1ccc(-c2ccccc2)cc1)B(O)O (centres unmarked),,,Caco-2,,,Papp B→A,25 ×10⁻⁶ cm/s
CSCC[C@H](NC(=O)CNC(=O)[C@H](CCCCN)NC(=O)[C@H](CC(C)C)NC(=O)[C@@H]1CCCN1C(=O)[C@H](CO)NC(=O)[C@H](Cc1c[nH]cn1)NC(=O)[C@H](Cc1c[nH]c2ccccc12)NC(=O)[C@H](CCCNC(=N)N)NC(=O)[C@H](CC(C)C)NC(=O)[C@H](CCCNC(=N)N)NC(=O)[C@H](Cc1c[nH]c2ccccc12)NC(=O)[C@H](CS)NC(=O)CCCCCNC(=O)CN1CCN(CC(=O)O)CCN(CC(=O)O)CCN(CC(=O)O)CC1)C(=O)O [copper-64 labelled],,ex vivo biodistribution,"BALB/c nude mice, bone","intravenous, dose not given, 2 h, Huh-7 tumour-bearing",,tissue uptake,1.2 %ID/g
CC(C)(CCCC/C=C/CCCCCC(C)(C)C(=O)O)C(=O)O,,,"beagle dog, both sexes","oral, dose not given, 48 h",,plasma concentration,4080 ng/mL
CC(C)[C@@H]1NC(=O)CNC(=O)[C@H](CC(N)=O)NC(=O)[C@H](CCCNC(=N)N)NC(=O)[C@H](Cc2ccc(O)cc2)NC(=O)[C@H](C(C)C)NC(=O)[C@@H](NC(=O)[C@@H](NC(=O)[C@H](CC(N)=O)NC(=O)[C@H](Cc2c[nH]c3ccccc23)NC(=O)[C@H](C)NC(=O)[C@H](Cc2ccccc2)NC(=O)CNC(=O)[C@H](CCCCN)NC(=O)[C@H](Cc2ccccc2)NC(=O)[C@H](Cc2ccccc2)NC(=O)[C@H](CCCCN)NC(=O)OCC2c3ccccc3-c3ccccc32)C(C)C)CSSC[C@@H](C(=O)N[C@@H](Cc2c[nH]cn2)C(=O)N[C@@H](CCCNC(=N)N)C(=O)N[C@@H](CCCNC(=N)N)C(=O)N[C@@H](C)C(=O)N[C@@H](CC(N)=O)C(N)=O)NC(=O)[C@H](C(C)C)NC(=O)[C@H](CCCNC(=N)N)NC1=O,,,ICR mouse,"ip, 10 mg/kg",direction not given,stimulus response score,0
CN(C)[C@H]1C[C@@]23CC[C@@]4(O2)C(=CC[C@]2(C)[C@@H](c5ccc6ccncc6c5)CC[C@H]24)C=C3[C@@H](O)[C@@H]1O,"SYK (Homo sapiens, UniProt P43405)","ATP probe labelling, inhibitor, KiNativ profiling",,0.1 µM,,inhibition,8.3%
CC(C)(C)C(=O)OCOP(=O)(OCOC(=O)C(C)(C)C)C1CCCN(O)C1=O (centres unmarked),CCRF-CEM,,,,,GI50,185 nM
COc1cnc2cccc(N3CCc4c(cc(Cn5ccnc5)cc4-c4cn(C)nc4C(F)(F)F)C3=O)c2c1,,,CD-1 mice,"intraperitoneal, 100 mg/kg once daily, day 2",,body weight,28.4 ± 0.6 g
O=C(c1cc(Cc2n[nH]c(=O)c3ccccc23)ccc1F)N1CC(CNC2CC2)C1,,,"female ICR mouse, plasma","oral, 60 mg/kg, solution formulation",,oral bioavailability,70.6%
O=C1NC2(CC2)COc2ncc(F)cc2[C@H]2COCCN2c2ccn3ncc1c3n2,,,"Sprague-Dawley rat, female, serum","oral, 5 mg/kg/day, end of recovery, 4-week repeated-dose toxicity",,albumin,44.7 ± 4.5 g/L
CC(CO)C1CN2C(=O)[C@H](CC(=O)O)NC(=O)CC(CC3CC3)NC(=O)[C@H](CCC(=O)O)NC(=O)CNC(=O)[C@H]([C@@H](C)O)NC(=O)[C@H](CCC(=O)O)NC(=O)[C@@H]2C1(F)F (some centres unmarked),,"chemical stability, HPLC","human, serum","5 nM, 4 h",,compound remaining,~85%
CN1Cc2cc(Cl)ccc2-n2c(nnc2C2CCN(c3cccc([18F])n3)CC2)C1,,,"C57BL/6 mouse male, thymus","intravenous, 3.7 MBq, 30 min",,tissue uptake,7.23 ± 3.13 %ID/g
CCOc1ccccc1-n1c(CN2CCNCC2)nc2ccccc2c1=O,,,"C57BL/6 mouse, male, plasma","oral, 6 mg/kg",,half-life,1.15 h
CCCCC[C@H]1C(=O)N(C)[C@H](C)C(=O)N(C)[C@@H](CCCCC)C(=O)N(C)[C@H](C)C(=O)N(C)[C@@H](CCCCC)C(=O)N(C)[C@H](C)C(=O)N(C)[C@@H](CCCCC)C(=O)N(C)[C@H](C)C(=O)N1C,,PAMPA,,"500 µM, pH 7.4, UV/ELSD/MS detection",,log Papp,-5.66
CC[C@H](C)[C@H](NC(=O)[C@H](CCCCN)NC(=O)CNC(=O)[C@H](CC(C)C)NC(=O)[C@H](Cc1ccccc1)NC(=O)[C@H](CCCCN)NC(=O)[C@H](CO)NC(=O)[C@H](Cc1ccccc1)NC(=O)[C@H](Cc1c[nH]c2ccccc12)NC(=O)[C@H](CCC(N)=O)NC(=O)[C@@H](NC(=O)[C@H](Cc1ccccc1)NC(=O)CCCCCNC(=O)CN1CCN(CC(=O)O)CCN(CC(=O)O)CCN(CC(=O)O)CC1)C(C)C)C(=O)N[C@@H](CCC(=O)O)C(=O)N1CCC[C@H]1C(=O)N[C@@H](CC(=O)O)C(=O)N[C@H](C(=O)N[C@@H](CO)C(=O)N[C@@H](CCC(N)=O)C(=O)N[C@H](C(=O)N[C@@H](CCC(N)=O)C(=O)N[C@@H](CC(=O)O)C(=O)N1CCC[C@H]1C(=O)N[C@@H](CC(N)=O)C(=O)N[C@@H](CC(=O)O)C(=O)N[C@@H](CCC(N)=O)C(=O)N[C@@H](Cc1ccc(O)cc1)C(=O)N[C@@H](CCC(=O)O)C(=O)N1CCC[C@H]1C(=O)N[C@@H](Cc1ccccc1)C(=O)O)C(C)C)C(C)C [copper-64 labelled],,,"C57BL/6 mice, pancreas",with: LPS 0.1 mg/kg intratracheal,,tissue uptake,1.13 ± 0.07 %ID/g
O=C1NC(=O)c2c1c1cc(F)c[n+]3c1c1c2c2cc(O)ccc2[n]1[Ru-4]312([N]=C=S)[S+]3CC[S+]1CC[S+]2CC3 (centres unmarked),"KIT (Homo sapiens, UniProt P10721, V654A)",enzyme activity,,"100 nM, human enzyme, with: 10 µM ATP",baseline: untreated,remaining activity,20%
CC(CCC(=O)NCC(=O)O)C1CCC2C3CCC4CC(OC5OC(C(=O)O)C(O)C(O)C5O)CCC4(C)C3CC(O)C12C (centres unmarked),,,"women, T/T genotype, plasma","dose not given, geometric mean",,glucuronide to parent ratio,0.373
C[C@H](O)[C@@H](NC(=O)[C@H]1CCCN1C(=O)[C@@H](CCCCN)NC(=O)[C@@H](CO)NC(=O)[C@@H](Cc1ccc(O)cc1)NC(=O)[C@@H](CC(N)=O)NC(=O)CCOCCOCCOCCNC(=O)CN1CCN(CC(=O)O)CCN(CC(=O)O)CCN(CC(=O)O)CC1)C(=O)N[C@H](CC(=O)O)C(=O)N[C@H](CCCNC(=N)N)C(=O)N[C@H](CCC(N)=O)C(=O)N[C@H](Cc1ccc(O)cc1)C(=O)N[C@H](Cc1c[nH]cn1)C(=O)N[C@H](Cc1ccccc1)C(N)=O [gallium-68 labelled],,ex vivo gamma counting,"BALB/c nude mouse, U-87 MG xenograft, intestine","intravenous, 1.85 MBq, 5 min",,tissue uptake,0.72 ± 0.27 %ID/g
CC(C)[C@H]1NC(=O)C[C@H]2/C=C/CCSSC[C@@H](NC1=O)C(=O)N[C@H](Cc1cccc3ccccc13)C(=O)NCC(=O)O2,"KIT (Homo sapiens, UniProt P10721, D816V)","enzyme activity, inhibitor",,10 µM,,inhibition,-4.1%
Cc1nc2cccc(OCC(C)(C)C(=O)NC(C)C)c2c(N)c1C(=O)[O-].[Na+],Escherichia coli,"reverse mutation, preincubation",WP2 uvrA,"0.80 mg/plate, without S9",,revertant colonies,27 ± 2 colonies/plate
COc1ccccc1-c1n[nH]c2nc(NC3CCN(C(=O)Cc4ccc(F)cc4F)CC3)ncc12,,"bead binding, competition bead pull-down, refers to: LINJ.21.0300",Leishmania donovani axenic amastigote extract,10 µM,baseline: vehicle,relative abundance,1.31
Cc1ccc(NS(=O)(=O)c2c(C(=O)N3CCCCCC3)c(C)n(C)c2C)c(Cl)c1,CV-1,,African green monkey cells,"100 µM, 60 (unit not given)",,viability,102% and 94.2%
N#[11C]c1ccc(-c2csc(NN=C3CCCC3)n2)cc1,,,"C57BL/6 mice, male, brain","intravenous, 3 MBq, 15 min",,radioactivity uptake,0.65 ± 0.01 %ID/g
CSCC[C@H](N)C(=O)N[C@@H](C)C(=O)N[C@@H](Cc1c[nH]c2ccccc12)C(=O)N[C@@H](Cc1c[nH]cn1)C(=O)N[C@@H](CC(=O)O)C(=O)N[C@@H](CC(=O)O)C(=O)N[C@@H](CCC(=O)O)C(=O)N[C@@H](CCC(=O)O)C(=O)N[C@@H](Cc1ccccc1)C(=O)N[C@@H](C)C(=O)N[C@@H](CCCNC(=N)N)C(=O)N[C@@H](CCCNC(=N)N)C(=O)N[C@@H](CCCNC(=N)N)C(=O)N[C@@H](CCCNC(=N)N)C(=O)NCCCCCC(=O)NCCCCC(NC(=O)CCCCCNC(=O)[C@H](CCCNC(=N)N)NC(=O)[C@H](CCCNC(=N)N)NC(=O)[C@H](CCCNC(=N)N)NC(=O)[C@H](CCCNC(=N)N)NC(=O)[C@H](C)NC(=O)[C@H](Cc1ccccc1)NC(=O)[C@H](CCC(=O)O)NC(=O)[C@H](CCC(=O)O)NC(=O)[C@H](CC(=O)O)NC(=O)[C@H](CC(=O)O)NC(=O)[C@H](Cc1c[nH]cn1)NC(=O)[C@H](Cc1c[nH]c2ccccc12)NC(=O)[C@H](C)NC(=O)[C@@H](N)CCSC)C(=O)NCCCCC(NC(=O)C(CCCCNC(=O)CCCCCNC(=O)[C@H](CCCNC(=N)N)NC(=O)[C@H](CCCNC(=N)N)NC(=O)[C@H](CCCNC(=N)N)NC(=O)[C@H](CCCNC(=N)N)NC(=O)[C@H](C)NC(=O)[C@H](Cc1ccccc1)NC(=O)[C@H](CCC(=O)O)NC(=O)[C@H](CCC(=O)O)NC(=O)[C@H](CC(=O)O)NC(=O)[C@H](CC(=O)O)NC(=O)[C@H](Cc1c[nH]cn1)NC(=O)[C@H](Cc1c[nH]c2ccccc12)NC(=O)[C@H](C)NC(=O)[C@@H](N)CCSC)NC(=O)CCCCCNC(=O)[C@H](CCCNC(=N)N)NC(=O)[C@H](CCCNC(=N)N)NC(=O)[C@H](CCCNC(=N)N)NC(=O)[C@H](CCCNC(=N)N)NC(=O)[C@H](C)NC(=O)[C@H](Cc1ccccc1)NC(=O)[C@H](CCC(=O)O)NC(=O)[C@H](CCC(=O)O)NC(=O)[C@H](CC(=O)O)NC(=O)[C@H](CC(=O)O)NC(=O)[C@H](Cc1c[nH]cn1)NC(=O)[C@H](Cc1c[nH]c2ccccc12)NC(=O)[C@H](C)NC(=O)[C@@H](N)CCSC)C(N)=O (some centres unmarked),,,"C57BL/6 mouse female, stomach","dose not given, 6 h",baseline: total,tissue distribution,26% and 20.6% and 31.4%
COc1ccccc1-c1n[nH]c2nc(N[C@H]3CC[C@H](NS(=O)(=O)CC(C)C)CC3)ncc12,,"bead binding, competition bead pull-down, refers to: LINJ.36.6110",Leishmania donovani extract,10 µM,baseline: vehicle,relative abundance,0.53
CS(C)(=O)=Nc1ccc(-c2ccc(-c3nc4cc(O[C@@H]5CO[C@H]6[C@@H]5OC[C@H]6O)[nH]c4cc3F)cc2)cc1,"KIT (Homo sapiens, UniProt P10721, V560G)","enzyme activity, inhibitor",,10 µM,,inhibition,37%

# Repeated from above:
SMILES,target or system,assay,test system,conditions,scale,endpoint,result
CC(CO)C1CN2C(=O)[C@H](CC(=O)O)NC(=O)CC(CC3CC3)NC(=O)[C@H](CCC(=O)O)NC(=O)CNC(=O)[C@H]([C@@H](C)O)NC(=O)[C@H](CCC(=O)O)NC(=O)[C@@H]2C1(F)F (some centres unmarked),,"chemical stability, HPLC","human, serum","5 nM, 4 h",,compound remaining,~85%
CN1Cc2cc(Cl)ccc2-n2c(nnc2C2CCN(c3cccc([18F])n3)CC2)C1,,,"C57BL/6 mouse male, thymus","intravenous, 3.7 MBq, 30 min",,tissue uptake,7.23 ± 3.13 %ID/g
CCOc1ccccc1-n1c(CN2CCNCC2)nc2ccccc2c1=O,,,"C57BL/6 mouse, male, plasma","oral, 6 mg/kg",,half-life,1.15 h
